Results collected from several papers.
± marks the error that the study gave.

Compound	cell line	test	setting	IC50
F[P-](F)(F)(F)(F)F.OCP(CO)CO.OCP(CO)CO.OCP(CO)CO.OCP(CO)CO.[Cu+]	DLD-1	cell growth or viability, MTT	72 h	0.37 µM
Cc1cc(Nc2nc(C[C@@]3(C(=O)O)CCN(Cc4cccc(Cl)c4F)[C@H](C)C3)cc(C)c2F)[nH]n1	SW1271	cell growth or viability, ATP luminescence	5 days	0.225 µM
CCC(C)C1OC(=O)C(NC(=O)c2cccc(NC=O)c2O)C(C)OC(=O)C(C(C)CC)OC(=O)C(C)(C)C(O)C(Cc2ccccc2)OC1=O (stereo not shown)	PC-9/GR gefitinib-resistant	cell viability, CCK-8	72 h	0.779 ± 0.13 µM
COC1=C[C@@H]2[C@@H]3Cc4c(Br)cc(OC)c(OC(=O)c5ccncn5)c4[C@]2(CCN3C)CC1=O	RAW264.7	NO release, inhibitor, Griess	LPS-stimulated	58.8 µM
CC[C@H](C)[C@H](NC(=O)CNC(=O)[C@H](C)NC(=O)[C@@H]1CCCN1C(=O)CNC(=O)[C@H](C)NC(=O)[C@H](CCC(=O)O)NC(=O)[C@H](C)NC(=O)[C@H](CC(=O)O)NC(=O)[C@H](C)NC(=O)[C@H](CCC(=O)O)NC(=O)[C@H](C)NC(=O)[C@H](CCC(=O)O)NC(=O)[C@@H]1CCCN1C(=O)[C@@H](N)CCC(=O)O)C(=O)NCC(=O)N[C@@H](C)C(=O)N[C@H](C(=O)N[C@@H](CC(C)C)C(=O)N[C@@H](CCCCN)C(=O)N[C@H](C(=O)N[C@@H](CC(C)C)C(=O)N[C@H](C(=O)N[C@H](C(=O)NCC(=O)N[C@@H](CC(C)C)C(=O)N1CCC[C@H]1C(=O)N[C@@H](C)C(=O)N[C@@H](CC(C)C)C(=O)N[C@H](C(=O)N[C@@H](CO)C(=O)N[C@@H](Cc1c[nH]c2ccccc12)C(=O)N[C@H](C(=O)N[C@@H](CCCCN)C(=O)N[C@@H](CCCNC(=N)N)C(=O)N[C@@H](CCCCN)C(=O)N[C@@H](CCCNC(=N)N)C(=O)N[C@@H](CCC(N)=O)C(=O)N[C@@H](CCC(N)=O)C(N)=O)[C@@H](C)CC)[C@@H](C)CC)[C@@H](C)O)[C@@H](C)O)C(C)C)C(C)C	MCF7 FAP-transfected	cell viability, MTT	72 h	5.2 ± 0.4 µM
Oc1c(CN(Cc2ccccn2)Cc2ccccn2)cc(CCn2cc(COCCOCCOCCOCc3cn(CCc4cc(CN(Cc5ccccn5)Cc5ccccn5)c(O)c(CN(Cc5ccccn5)Cc5ccccn5)c4)nn3)nn2)cc1CN(Cc1ccccn1)Cc1ccccn1	CHO-K1	cytotoxicity	72 h	> 100 µM
O=C(Cc1ccc2ccccc2c1)N[C@H](Cc1ccc(OP(=O)(O)O)cc1)C(=O)N[C@H](Cc1ccccc1)C(=O)N[C@H](Cc1ccccc1)C(=O)N[C@H](Cc1ccc(OP(=O)(O)O)cc1)C(=O)O	SAOS-2	cell growth or viability, MTT	–	338 µg/mL
CC[C@H](C)[C@H](NC(=O)[C@H](CCCCN)NC(=O)[C@@H](NC(=O)[C@H](CCC(N)=O)NC(=O)[C@H](CCCNC(=N)N)NC(=O)[C@H](CC(C)C)NC(=O)CNC(=O)[C@H](Cc1ccccc1)NC(=O)CNC(=O)[C@H](Cc1ccc(O)cc1)NC(=O)CNC(=O)[C@H](CCCCN)NC(=O)[C@@H](NC(=O)[C@H](Cc1ccccc1)NC(=O)[C@@H](NC(=O)[C@H](CC(=O)O)NC(=O)[C@@H](N)CCCNC(=N)N)C(C)C)[C@@H](C)O)[C@@H](C)CC)C(=O)N[C@@H](Cc1c[nH]c2ccccc12)C(=O)N[C@@H](Cc1ccccc1)C(=O)N[C@@H](CCC(N)=O)C(=O)N[C@@H](CC(N)=O)C(=O)N[C@@H](CCCNC(=N)N)C(=O)N[C@@H](CCCNC(=N)N)C(=O)N[C@@H](CCSC)C(=O)N[C@@H](CCCCN)C(=O)N[C@@H](Cc1c[nH]c2ccccc12)C(=O)N[C@@H](CCCCN)C(=O)N[C@@H](CCCCN)C(=O)O	CLL patient PBMCs	cell death, PI staining flow cytometry	90 min, room temperature, serum-free medium	2.2 µM
COC(=O)C1CN1S(=O)(=O)c1ccc(C)cc1 (stereo not shown)	Caco-2	cell growth or viability, MTT	48 h	30 µM
[Cl][Ag].[Se]=c1n(C2CCCCC2)ccn1C1CCCCC1	LoVo-OXP (oxaliplatin-resistant)	MTT	72 h	4.4 ± 0.3 µM

Repeated from above:
Compound	cell line	test	setting	IC50
CC[C@H](C)[C@H](NC(=O)CNC(=O)[C@H](C)NC(=O)[C@@H]1CCCN1C(=O)CNC(=O)[C@H](C)NC(=O)[C@H](CCC(=O)O)NC(=O)[C@H](C)NC(=O)[C@H](CC(=O)O)NC(=O)[C@H](C)NC(=O)[C@H](CCC(=O)O)NC(=O)[C@H](C)NC(=O)[C@H](CCC(=O)O)NC(=O)[C@@H]1CCCN1C(=O)[C@@H](N)CCC(=O)O)C(=O)NCC(=O)N[C@@H](C)C(=O)N[C@H](C(=O)N[C@@H](CC(C)C)C(=O)N[C@@H](CCCCN)C(=O)N[C@H](C(=O)N[C@@H](CC(C)C)C(=O)N[C@H](C(=O)N[C@H](C(=O)NCC(=O)N[C@@H](CC(C)C)C(=O)N1CCC[C@H]1C(=O)N[C@@H](C)C(=O)N[C@@H](CC(C)C)C(=O)N[C@H](C(=O)N[C@@H](CO)C(=O)N[C@@H](Cc1c[nH]c2ccccc12)C(=O)N[C@H](C(=O)N[C@@H](CCCCN)C(=O)N[C@@H](CCCNC(=N)N)C(=O)N[C@@H](CCCCN)C(=O)N[C@@H](CCCNC(=N)N)C(=O)N[C@@H](CCC(N)=O)C(=O)N[C@@H](CCC(N)=O)C(N)=O)[C@@H](C)CC)[C@@H](C)CC)[C@@H](C)O)[C@@H](C)O)C(C)C)C(C)C	MCF7 FAP-transfected	cell viability, MTT	72 h	5.2 ± 0.4 µM
